{"data": "Measured values of several laboratories", "note": "Lines come from different studies, so protocols differ. Numbers after ± are the reported error."}
{"Compound": "CC(C)[C@H](NC(=O)CNC(=O)[C@H](CCC(N)=O)NC(=O)[C@H](C)N)C(=O)O", "system": "human", "setting": "intravenous infusion, 90 mg/kg/h, 2 h infusion", "measurement": "subjects with serious adverse events", "value": "0%"}
{"Compound": "CN[C@](C)(C[18F])C(=O)O", "system": "SCID mouse MDA-MB-468 xenograft, blood", "setting": "60 min post injection", "measurement": "tissue uptake", "value": "1 ± 0.3 %ID/g"}
{"Compound": "CSCC[C@@H]1NC(=O)[C@@H]2CSSC[C@H](NC(=O)[C@H](CO)NC(=O)[C@H](C)N)C(=O)N[C@@H](CCCNC(=N)N)C(=O)N[C@@H]([C@@H](C)O)C(=O)N3CCC[C@H]3C(=O)N[C@@H](CCCCN)C(=O)N[C@@H](CC(=O)O)C(=O)N[C@H]3CSSC[C@H](NC(=O)[C@H](CCCCN)NC(=O)[C@H](CCCNC(=N)N)NC(=O)[C@H](CC(N)=O)NC1=O)C(=O)N[C@@H](CCCCN)C(=O)N[C@H]1CSSC[C@H](NC(=O)[C@@H]4CCCN4C(=O)[C@H](CC(=O)O)NC(=O)[C@H](C)NC3=O)C(=O)N[C@@H](C)C(=O)N[C@@H](CCCCN)C(=O)N[C@@H](CCC(=O)O)C(=O)N[C@@H]([C@@H](C)O)C(=O)NCC(=O)N[C@@H](CSSC[C@@H](C(N)=O)NC(=O)[C@H](CCCNC(=N)N)NC(=O)[C@H](CC(N)=O)NC1=O)C(=O)N1CCC[C@H]1C(=O)N[C@@H](Cc1ccc(O)cc1)C(=O)NCC(=O)N[C@@H](CCCCN)C(=O)N2", "system": "DA rat pristane-induced arthritis, serum", "setting": "subcutaneous, 0.1 mg/kg once weekly, 21 days", "measurement": "Calcium", "value": "7.04 mg/dL"}
{"Compound": "O=C(Cc1ccc2ccccc2c1)N[C@H](Cc1ccccc1)C(=O)N[C@H](Cc1ccc(O)cc1)C(=O)N[C@H](Cc1ccccc1)C(=O)N[C@H](Cc1ccc(OP(=O)(O)O)cc1)C(=O)O", "assay": "substrate", "system": "HepG2 cell lysate", "setting": "500 µM, 1 h, pH 7.4, 37 °C", "measurement": "dephosphorylation", "value": "< 5%"}
{"Compound": "CSCC[C@H](NC(=O)CNC(=O)[C@H](CC(=O)O)NC(=O)[C@@H](NC(=O)[C@@H](NC(=O)[C@@H](NC(=O)CNC(=O)[C@H](CCC(=O)O)NC(=O)[C@H](CCSC)NC(=O)[C@H](CC(=O)O)NC(=O)[C@H](C)NC(=O)[C@H](C)NC(=O)[C@@H](NC(=O)[C@H](CO)NC(=O)[C@@H](N)CC(C)C)[C@@H](C)O)C(C)C)C(C)C)[C@@H](C)O)C(=O)N[C@@H](C)C(=O)N[C@@H](CO)C(=O)NCC(=O)N[C@@H](CC(C)C)C(=O)N[C@@H](CC(=O)O)C(=O)N[C@@H](CCCCN)C(=O)N[C@@H](CC(=O)O)C(=O)N[C@@H](Cc1ccc(O)cc1)C(=O)N[C@@H](CC(C)C)C(=O)N[C@@H](CCCCN)C(=O)N1CCC[C@H]1C(=O)N[C@@H](CC(=O)O)C(=O)N[C@@H](CC(=O)O)C(=O)O", "system": "CD-1 mouse, male, serum", "setting": "intravenous, 480 mg/kg, 1 h", "measurement": "serum concentration", "value": "668 to 22500 ng/mL"}
{"Compound": "CCCCCCCC(=O)OC[C@H](NC(=O)[C@H](CO)NC(=O)CN)C(=O)N[C@@H](Cc1ccccc1)C(=O)N[C@@H](CC(C)C)C(=O)N[C@@H](CO)C(=O)N1CCC[C@H]1C(=O)N[C@@H](CCC(=O)O)C(=O)N[C@@H](Cc1cnc[nH]1)C(=O)N[C@@H](CCC(N)=O)C(=O)N[C@@H](CCCNC(=N)N)C(=O)N[C@H](C(=O)N[C@@H](CCC(N)=O)C(=O)N[C@@H](CCC(N)=O)C(=O)N[C@@H](CCCNC(=N)N)C(=O)N[C@@H](CCCCN)C(=O)N[C@@H](CCC(=O)O)C(=O)N[C@@H](CO)C(=O)N[C@@H](CCCCN)C(=O)N[C@@H](CCCCN)C(=O)N1CCC[C@H]1C(=O)N1CCC[C@H]1C(=O)N[C@@H](C)C(=O)N[C@@H](CCCCN)C(=O)N[C@@H](CC(C)C)C(=O)N[C@@H](CCC(N)=O)C(=O)N1CCC[C@H]1C(=O)N[C@@H](CCCNC(=N)N)C(=O)O)C(C)C", "system": "human, plasma", "setting": "intravenous infusion, 1 µg/kg/h, 210 min", "measurement": "mean residence time", "value": "108 ± 10 min"}
{"Compound": "O=c1cc(-c2ccccc2)oc2c(Br)c(O)c(O)c(O)c12", "system": "C57BL/6 mouse, plasma", "setting": "po, 250 mg/kg", "measurement": "Ctrough", "value": "373 ± 272 ng/mL"}
{"Compound": "O=C(O)CC[C@H](NC(=O)O[C@@H](CCCCNC(=O)c1ccc([18F])cc1)C(=O)O)C(=O)O", "system": "mouse, PC-3 PIP/flu xenografts, bladder", "setting": "30 min", "measurement": "tissue uptake", "value": "22.4 ± 22.5 %ID/g"}
{"Compound": "CC[C@H](C)[C@@H]1NC(=O)[C@H](CCCNC(=N)N)NC(=O)[C@H](CC(=O)O)NC(=O)[C@H](CC(C)C)NC(=O)[C@H](CCCCN)NC(=O)[C@H](CC(C)C)NC(=O)CNC(=O)[C@H](Cc2ccccc2)NC(=O)[C@@H](NC(=O)CNC(=O)[C@H](CCCCN)NC(=O)[C@H](CO)NC(=O)[C@H](CC(C)C)NC(=O)CNC(=O)[C@H](CCCCN)NC(=O)[C@H](CCCCN)NC(=O)[C@H](CCC(N)=O)NC(=O)[C@H](C)NC(=O)CNC(=O)[C@H](CCCCN)NC(=O)[C@H](Cc2ccc(O)cc2)NC(=O)[C@H](CCCCN)NC(=O)[C@H](CCCNC(=N)N)NC(=O)[C@H](C)NC(=O)[C@H](CCC(N)=O)NC(=O)[C@@H]2CCCN2C(=O)[C@H](Cc2c[nH]cn2)NC(=O)[C@H](CCC(=O)O)NC(=O)[C@H](CCC(N)=O)NC(=O)[C@@H](N)CC(C)C)CSSC[C@@H](C(=O)O)NC(=O)CNC(=O)[C@H](CC(C)C)NC(=O)CNC(=O)[C@H](CO)NC(=O)[C@H](CCSC)NC(=O)[C@H](CO)NC(=O)CNC1=O", "system": "FVB/nJ male mice, 3 weeks old", "setting": "dose not given", "scale": "reference: untreated", "measurement": "body weight", "value": "no effect"}
{"Compound": "CC[C@H](C)[C@@H]1NC(=O)[C@H](CCCCN)NC(=O)[C@H](CCCCN)NC(=O)[C@H](Cc2ccc(O)cc2)NC(=O)[C@H](CC(C)C)NC(=O)[C@@H]2CCCN2C(=O)[C@H](C)NC(=O)CNC(=O)CNC(=O)[C@H](CO)NC(=O)CNC(=O)CNC(=O)[C@H](CCCNC(=N)N)NC(=O)[C@H](CCC(=O)O)NC(=O)[C@H](CC(C)C)NC(=O)[C@H](Cc2c[nH]cn2)NC(=O)[C@H](CCCCN)NC(=O)[C@H](CCCCN)NC(=O)[C@H]([C@@H](C)CC)NC(=O)[C@H]([C@@H](C)CC)NC(=O)[C@H](CCCCN)NC(=O)[C@H](CCCCN)NC(=O)[C@H](Cc2ccc(O)cc2)NC(=O)[C@H](CC(C)C)NC(=O)[C@@H]2CCCN2C(=O)CNC(=O)CNC(=O)[C@@H](NC(=O)CN)CSSC[C@@H](C(N)=O)NC(=O)[C@H](Cc2c[nH]cn2)NC(=O)[C@H](CCCCN)NC(=O)[C@H](CCCCN)NC(=O)[C@H]([C@@H](C)CC)NC1=O", "assay": "hemolysis", "system": "uninfected human erythrocytes", "setting": "1 h", "measurement": "HC10", "value": "> 128 µM"}
{"Compound": "CC[C@H](C)C(=O)N1CCC(NC(=O)Nc2ccc(OC(F)(F)F)c(F)c2)CC1", "system": "healthy volunteers", "setting": "oral, 0.5 mg single dose", "measurement": "subjects with laryngitis TEAE", "value": "16.7%"}
{"Compound": "CN(C)C(CNC(=O)Nc1cc(C(F)(F)F)ccc1N1CCOCC1)c1ccncc1 (stereo not drawn)", "system": "mouse, serum", "setting": "intraperitoneal, 360 mg/kg single dose", "measurement": "serum total protein", "value": "3.5 g/dL"}
{"note": "Repeated from above:"}
{"Compound": "CC(C)[C@H](NC(=O)CNC(=O)[C@H](CCC(N)=O)NC(=O)[C@H](C)N)C(=O)O", "system": "human", "setting": "intravenous infusion, 90 mg/kg/h, 2 h infusion", "measurement": "subjects with serious adverse events", "value": "0%"}
